Results collected from several papers.
Lines come from different studies, so protocols differ. Several values in a cell are separate wells, animals, samples, runs or records. ± marks the error that the study gave.
GUK1: GUK1 (Homo sapiens, UniProt Q16774)
Sequence of UniProt Q16774 (whole entry, looked up): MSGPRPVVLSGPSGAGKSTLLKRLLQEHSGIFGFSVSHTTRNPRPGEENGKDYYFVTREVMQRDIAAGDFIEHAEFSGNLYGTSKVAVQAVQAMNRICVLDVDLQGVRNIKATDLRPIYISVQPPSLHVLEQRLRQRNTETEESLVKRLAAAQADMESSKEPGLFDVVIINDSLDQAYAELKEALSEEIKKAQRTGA
Aryl hydrocarbon receptor: Aryl hydrocarbon receptor (Danio rerio, UniProt Q9YGV3)
Sequence of UniProt Q01105 (whole entry, unmodified, looked up): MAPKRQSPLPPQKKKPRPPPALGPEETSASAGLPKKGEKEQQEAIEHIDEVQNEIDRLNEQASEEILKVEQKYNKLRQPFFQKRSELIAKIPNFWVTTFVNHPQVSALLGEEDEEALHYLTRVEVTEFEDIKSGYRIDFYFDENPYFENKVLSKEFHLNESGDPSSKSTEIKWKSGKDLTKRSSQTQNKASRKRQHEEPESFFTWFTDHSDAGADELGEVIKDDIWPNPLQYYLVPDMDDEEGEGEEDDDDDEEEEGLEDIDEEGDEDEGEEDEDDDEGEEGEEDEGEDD
Sequence of UniProt O76090 (whole entry, unmodified, looked up): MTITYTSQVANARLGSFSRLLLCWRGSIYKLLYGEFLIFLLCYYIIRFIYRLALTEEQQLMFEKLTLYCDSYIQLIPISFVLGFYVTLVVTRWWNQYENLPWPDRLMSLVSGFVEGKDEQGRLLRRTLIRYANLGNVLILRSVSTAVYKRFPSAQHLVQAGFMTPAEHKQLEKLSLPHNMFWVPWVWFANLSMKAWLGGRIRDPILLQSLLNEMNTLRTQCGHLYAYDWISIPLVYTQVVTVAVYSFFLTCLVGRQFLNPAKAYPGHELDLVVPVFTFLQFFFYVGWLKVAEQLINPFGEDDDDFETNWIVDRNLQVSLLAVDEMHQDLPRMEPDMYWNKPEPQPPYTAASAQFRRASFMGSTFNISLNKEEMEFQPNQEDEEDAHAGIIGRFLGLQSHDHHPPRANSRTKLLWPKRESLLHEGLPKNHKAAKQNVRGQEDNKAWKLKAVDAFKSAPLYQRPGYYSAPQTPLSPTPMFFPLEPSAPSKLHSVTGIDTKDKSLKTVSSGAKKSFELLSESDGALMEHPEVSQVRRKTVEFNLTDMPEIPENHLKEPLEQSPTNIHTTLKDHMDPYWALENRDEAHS
Sequence of UniProt P51575 (whole entry, looked up): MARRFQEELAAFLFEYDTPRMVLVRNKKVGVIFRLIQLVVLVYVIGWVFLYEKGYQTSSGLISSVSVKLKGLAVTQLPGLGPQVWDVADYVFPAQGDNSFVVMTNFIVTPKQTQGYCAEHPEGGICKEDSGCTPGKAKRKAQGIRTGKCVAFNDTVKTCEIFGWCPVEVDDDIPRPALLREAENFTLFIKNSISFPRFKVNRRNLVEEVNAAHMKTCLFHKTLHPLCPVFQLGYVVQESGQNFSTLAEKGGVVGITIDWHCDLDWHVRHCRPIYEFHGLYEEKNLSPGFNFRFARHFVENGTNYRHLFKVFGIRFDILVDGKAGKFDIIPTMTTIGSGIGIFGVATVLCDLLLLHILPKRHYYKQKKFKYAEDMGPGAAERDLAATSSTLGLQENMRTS
Sequence of UniProt P60891 (whole entry, looked up): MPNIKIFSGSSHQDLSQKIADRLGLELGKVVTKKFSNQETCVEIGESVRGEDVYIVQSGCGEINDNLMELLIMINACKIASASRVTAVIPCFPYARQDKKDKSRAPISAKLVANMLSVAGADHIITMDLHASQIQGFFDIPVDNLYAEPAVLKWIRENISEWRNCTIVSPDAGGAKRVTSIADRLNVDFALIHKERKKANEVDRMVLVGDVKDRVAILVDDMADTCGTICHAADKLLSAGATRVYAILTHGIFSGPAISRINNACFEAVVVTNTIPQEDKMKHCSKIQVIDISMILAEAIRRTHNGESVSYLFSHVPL
Sequence of UniProt P00519 (whole entry, unmodified, looked up): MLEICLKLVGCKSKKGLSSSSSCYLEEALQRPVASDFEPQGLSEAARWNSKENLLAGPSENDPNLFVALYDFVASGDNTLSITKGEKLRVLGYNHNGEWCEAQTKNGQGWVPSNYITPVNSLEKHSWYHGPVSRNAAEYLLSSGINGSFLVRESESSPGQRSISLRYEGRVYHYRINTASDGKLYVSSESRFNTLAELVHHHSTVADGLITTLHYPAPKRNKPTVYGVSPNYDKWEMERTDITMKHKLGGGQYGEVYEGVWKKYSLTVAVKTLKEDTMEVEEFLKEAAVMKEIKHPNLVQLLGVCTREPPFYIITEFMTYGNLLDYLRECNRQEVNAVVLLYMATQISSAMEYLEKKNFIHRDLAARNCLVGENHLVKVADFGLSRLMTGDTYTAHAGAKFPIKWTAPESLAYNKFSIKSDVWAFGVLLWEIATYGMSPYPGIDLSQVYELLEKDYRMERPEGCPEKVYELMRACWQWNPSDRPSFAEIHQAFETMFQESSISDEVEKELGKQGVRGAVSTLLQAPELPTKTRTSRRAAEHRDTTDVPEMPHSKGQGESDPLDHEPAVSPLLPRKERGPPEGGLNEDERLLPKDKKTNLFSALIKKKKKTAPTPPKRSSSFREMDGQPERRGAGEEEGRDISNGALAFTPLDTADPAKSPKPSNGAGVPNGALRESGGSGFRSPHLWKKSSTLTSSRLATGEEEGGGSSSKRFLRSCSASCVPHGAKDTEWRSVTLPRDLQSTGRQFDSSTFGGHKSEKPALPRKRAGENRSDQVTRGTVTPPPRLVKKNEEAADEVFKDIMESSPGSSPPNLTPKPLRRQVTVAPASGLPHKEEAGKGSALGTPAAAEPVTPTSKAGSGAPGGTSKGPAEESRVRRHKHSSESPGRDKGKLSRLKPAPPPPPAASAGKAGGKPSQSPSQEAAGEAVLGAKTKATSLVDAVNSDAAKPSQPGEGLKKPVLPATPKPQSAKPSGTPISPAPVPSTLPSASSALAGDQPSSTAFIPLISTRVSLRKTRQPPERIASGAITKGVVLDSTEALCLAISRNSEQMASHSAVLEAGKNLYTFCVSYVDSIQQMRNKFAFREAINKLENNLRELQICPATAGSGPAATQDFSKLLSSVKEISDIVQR
Sequence of UniProt Q8IWT6 (whole entry, unmodified, looked up): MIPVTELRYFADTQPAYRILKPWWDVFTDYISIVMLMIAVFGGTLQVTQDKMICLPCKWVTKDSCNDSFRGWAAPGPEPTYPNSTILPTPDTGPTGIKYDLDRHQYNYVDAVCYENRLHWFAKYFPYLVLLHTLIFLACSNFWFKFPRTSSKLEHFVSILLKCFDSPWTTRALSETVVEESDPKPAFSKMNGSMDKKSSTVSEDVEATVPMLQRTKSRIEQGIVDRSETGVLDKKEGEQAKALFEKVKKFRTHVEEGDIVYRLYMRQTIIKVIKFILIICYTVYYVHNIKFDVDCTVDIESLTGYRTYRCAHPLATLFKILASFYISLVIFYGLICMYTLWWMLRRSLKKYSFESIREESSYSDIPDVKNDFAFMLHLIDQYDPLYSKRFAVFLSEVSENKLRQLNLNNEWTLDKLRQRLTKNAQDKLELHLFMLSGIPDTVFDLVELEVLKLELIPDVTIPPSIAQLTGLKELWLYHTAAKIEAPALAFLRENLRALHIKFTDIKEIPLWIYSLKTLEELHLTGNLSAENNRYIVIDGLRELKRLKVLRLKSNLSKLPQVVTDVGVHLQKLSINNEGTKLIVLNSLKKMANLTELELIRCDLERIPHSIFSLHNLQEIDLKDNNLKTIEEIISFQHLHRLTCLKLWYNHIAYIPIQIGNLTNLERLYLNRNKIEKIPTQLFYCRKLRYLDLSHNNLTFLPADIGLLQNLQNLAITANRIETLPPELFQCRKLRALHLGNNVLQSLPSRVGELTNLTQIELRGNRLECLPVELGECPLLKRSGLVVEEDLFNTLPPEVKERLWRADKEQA
Sequence of UniProt P63138 (whole entry, looked up): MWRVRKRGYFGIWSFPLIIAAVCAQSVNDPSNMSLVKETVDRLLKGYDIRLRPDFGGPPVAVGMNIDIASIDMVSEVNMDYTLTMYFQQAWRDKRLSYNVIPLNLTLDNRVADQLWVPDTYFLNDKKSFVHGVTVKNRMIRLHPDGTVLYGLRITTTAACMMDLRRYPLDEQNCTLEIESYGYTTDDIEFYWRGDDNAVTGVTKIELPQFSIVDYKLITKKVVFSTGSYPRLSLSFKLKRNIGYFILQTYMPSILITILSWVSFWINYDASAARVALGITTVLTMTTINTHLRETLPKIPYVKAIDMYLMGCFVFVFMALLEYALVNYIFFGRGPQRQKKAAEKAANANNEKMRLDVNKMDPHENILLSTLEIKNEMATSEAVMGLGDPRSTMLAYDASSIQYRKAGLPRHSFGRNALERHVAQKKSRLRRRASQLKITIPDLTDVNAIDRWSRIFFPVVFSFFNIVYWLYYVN
Sequence of UniProt Q9UH17 (whole entry, looked up): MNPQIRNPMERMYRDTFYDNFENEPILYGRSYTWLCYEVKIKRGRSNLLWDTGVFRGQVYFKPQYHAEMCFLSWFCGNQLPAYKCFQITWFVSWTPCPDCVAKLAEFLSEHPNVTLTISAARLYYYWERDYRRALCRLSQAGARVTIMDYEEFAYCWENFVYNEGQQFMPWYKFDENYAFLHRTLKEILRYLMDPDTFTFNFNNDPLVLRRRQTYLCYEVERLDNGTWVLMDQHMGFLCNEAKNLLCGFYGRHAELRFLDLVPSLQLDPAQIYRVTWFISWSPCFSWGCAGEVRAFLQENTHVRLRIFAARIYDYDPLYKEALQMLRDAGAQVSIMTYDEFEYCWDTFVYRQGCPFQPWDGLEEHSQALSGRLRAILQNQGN
Sequence of UniProt Q9H7Z7 (whole entry, looked up): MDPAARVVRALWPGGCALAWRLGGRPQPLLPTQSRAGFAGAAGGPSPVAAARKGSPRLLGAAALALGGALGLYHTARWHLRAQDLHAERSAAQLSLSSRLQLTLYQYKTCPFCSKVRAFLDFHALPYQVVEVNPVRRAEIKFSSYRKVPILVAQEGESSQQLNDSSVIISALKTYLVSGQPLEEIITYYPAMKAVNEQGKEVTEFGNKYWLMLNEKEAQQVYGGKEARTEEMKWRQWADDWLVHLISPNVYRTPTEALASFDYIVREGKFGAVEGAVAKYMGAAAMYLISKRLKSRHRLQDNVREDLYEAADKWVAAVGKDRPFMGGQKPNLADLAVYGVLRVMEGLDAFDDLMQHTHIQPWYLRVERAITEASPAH

Structure (SMILES)	target	assay	system	conditions	how to read	quantity	value
CN(CCCCCCNC(=O)CNc1cccc2c1C(=O)N(C1CCC(=O)NC1=O)C2=O)Cc1cn(Cc2ccc(C(=O)NO)cc2)c2ccccc12.O=C(O)C(F)(F)F (stereo not drawn)	Protein deacetylase HDAC6 (HDAC6, Homo sapiens, UniProt Q9UBN7)	protein degradation, degrader, western blot	MM1.S cells	24 h	reference: HDAC10 over HDAC6	DC50 ratio	3.1 fold
Nc1ncnc2c1ncn2[C@@H]1O[C@H](COP(=O)(O)CP(=O)(O)OP(=O)(O)O)[C@@H](O)[C@H]1O	P2X purinoceptor 1 (P2RX1, Homo sapiens, UniProt P51575)	calcium influx		316 nM	reference: ionomycin response	calcium influx	98.4% and 100% and 86.6% and 94.2%
CCCCCCCCCCCCC/C=C/[C@@H](O)[C@H](CO)NC(=O)CCCCCCCCCCCCCCCCCCCCC	Protein SET (SET, Homo sapiens, UniProt Q01105)	lipid binding, GFP pull-down LC-MS/MS	A549 overexpressing GFP-tagged protein		reference: eluate plus flow-through	lipid fraction bound	8.3%
CC1CCCN1c1nccc(-c2cnn3ncccc23)n1 (stereo not drawn)	Tyrosine-protein kinase ABL1 (ABL1, Homo sapiens, UniProt P00519, F317L)	KINOMEscan		1 µM		remaining binding	100%
CC[C@@H]1[C@H](F)C(=O)N[C@@H]1COc1nccc2cc(C(N)=O)c(OC)cc12	Serine/threonine-protein kinase greatwall (MASTL, Homo sapiens, UniProt Q96GX5)	ATP-site probe binding, inhibitor, ActivX ATP probe profiling	THP-1 cell lysate	0.04 mM, ATP loop site		inhibition	3.9%
C=CC(=O)N1CCC[C@@H](n2nc(-c3ccc(Oc4ccccc4)cc3)c3c(N)ncnc32)C1	Fibroblast growth factor receptor 4 (FGFR4, Homo sapiens, UniProt P22455)			10 µM		remaining activity	59.9%
Nc1nnc(-c2ccccc2O)cc1N1CCN(Cc2ccc(OCCOCCNc3cccc4c3C(=O)N(C3CCC(=O)NC3=O)C4=O)c(F)c2)CC1 (stereo not drawn)	SWI/SNF-related matrix-associated actin-dependent regulator of chromatin subfamily A member 2 (SMARCA2, Homo sapiens, UniProt P51531)	degrader, immunoblot	NCI-H1975	96 h		Dmax	95%
CC[C@H](C)[C@H](NC(=O)[C@H](CCCNC(=N)N)NC(=O)[C@H](Cc1c[nH]cn1)NC(=O)[C@H](CCCNC(=N)N)NC(=O)[C@H](CC(=O)O)NC(=O)[C@H](CC(=O)O)NC(=O)[C@@H](NC(=O)[C@H](CC(=O)O)NC(=O)[C@@H]1CCCN1C(=O)[C@@H](N)CC(C)C)[C@@H](C)O)C(=O)N[C@@H](CCC(=O)O)C(=O)N[C@@H](CCC(=O)O)C(=O)N[C@@H](CCCCN)C(=O)N[C@@H](CCCNC(=N)N)C(=O)N[C@@H](CCCCN)C(=O)N[C@@H](CCCNC(=N)N)C(=O)N[C@H](C(=O)N[C@@H](Cc1ccc(O)cc1)C(=O)N[C@@H](CCC(=O)O)C(=O)N[C@H](C(=O)N[C@@H](Cc1ccccc1)C(=O)N[C@@H](CCCCN)C(=O)N[C@@H](CO)C(=O)N[C@H](C(=O)N[C@@H](CCSC)C(=O)N[C@@H](CCCCN)C(=O)N[C@@H](CCCCN)C(=O)N[C@@H](CO)C(=O)N1CCC[C@H]1C(=O)N[C@@H](Cc1ccccc1)C(=O)N[C@@H](CC(N)=O)C(=O)NCC(=O)N1CCC[C@H]1C(=O)O)[C@@H](C)CC)[C@@H](C)O)[C@@H](C)O	NF-kappa-B inhibitor alpha (Homo sapiens, UniProt P25963)	binding, ITC		293 K, 150 mM NaCl		ΔH	-3.6 ± 0.4 kcal/mol
O=C(Nc1cccc2[nH]ccc12)c1ccc(Cl)cc1	Alpha-synuclein (SNCA, Homo sapiens, UniProt P37840)	ThT kinetics		concentration not given, added: SNCA 2 µM		fibril formation	inhibited
CCCCNc1c(C(=O)OCC)c(C)nc2c1cnn2CC.Cl	GABA-A receptor; alpha-1/beta-2/gamma-2 (Rattus norvegicus, UniProt P18508+P62813+P63138)	chloride current, agonist, whole-cell patch clamp	HEK293 expressing GABAA	30 s	reference: maximum	maximal response	49%
CCC1(O)CCCN(C(=O)c2ccc(-c3ccc(F)c(NC(=O)CCl)c3)cc2)C1 (stereo not drawn)	DNA dC->dU-editing enzyme APOBEC-3B, C-terminal domain (Homo sapiens, UniProt Q9UH17)	covalent modifier, intact protein mass spectrometry, item: adduct +25721 Da		125 µM, 3 h, 5-fold molar excess		protein adduct	72%
[Cl-].[K+]	GUK1	enzyme activity, NADH-coupled		30 mM		reaction velocity	0.0522 µM/s and 0.0456 µM/s and 0.0519 µM/s
CCCC(CCC)c1nc2c(Nc3ccc(C#CCCCCCCCCN)cc3)nc3ccccc3c2[nH]1	Alpha-1D adrenergic receptor (ADRA1D, Homo sapiens, UniProt P25100)	PDSP screening				off-target affinity	inactive
CC(=C/C(=O)O)/C=C/C=C(\C)C1C=C2C(C)(C)CCCC2(C)O1 (stereo not drawn)	Rhodopsin (RHO, Homo sapiens, UniProt P08100, E181K)	immunostaining, item: opsin	COS-7 transfected	5.00 µM, unit not given	reference: surface over total stained cells	plasma membrane localization	0.72
CC1=C(/C=C/C(C)=C/C=C/C(C)=C/C=O)C(C)(C)CCC1	Rhodopsin (RHO, Bos taurus, UniProt P02699, G270S)	retinal release, Trp FRET	lipid bicelles	28 °C, G270S mutant	reference: wild-type rhodopsin	relative koff	1.84 ± 0.02
CCCCCCCCCCCCC/C=C/[C@@H](O)[C@H](CO)NC(=O)CCCCCCCCCCCCCCCCCCC	Protein SET (SET, Homo sapiens, UniProt Q01105, Y135C)	lipid binding, GFP pull-down LC-MS/MS	A549 overexpressing GFP-tagged protein	unit not given	reference: vector-transfected cells	bound endogenous lipid	30.3
O=c1nc(SCc2cc(F)cc(C(F)(F)F)c2)nc(SCc2csc3ccc(Cl)cc23)[nH]1	DNA topoisomerase 2-alpha (TOP2A, Homo sapiens, UniProt P11388)	DNA cleavage		3.9 µM, replicate 2		linear DNA	0%
Cn1c2c(c3ccc(Cl)c(Cl)c31)C(C#N)C(C)(C)NC2=O (stereo not drawn)	Serine/threonine-protein kinase VRK3 (VRK3, Homo sapiens, UniProt Q8IV63)	thermal stability, thermal shift		10 µM	higher = stronger binding	delta Tm	-0.2 °C
C=CC(=O)N1CCC(COCC(=O)N2CCN(c3nc(-c4cnc(N)nc4C(F)F)nc(N4CCOC[C@@H]4C)n3)CC2)CC1	Serine/threonine-protein kinase Nek9 (NEK9, Homo sapiens, UniProt Q8TD19)	KINOMEscan		1 µM		remaining binding	74%
O=C1C[C@@H](c2ccccc2)Oc2cc(O)cc(O)c21	Aryl hydrocarbon receptor	reporter gene, agonist, luciferase reporter	ZF-4	370.37 µM	reference: vehicle control	fold change	1.36
CCCCCCCCCCCCC/C=C/[C@@H](O)[C@H](CO)NC(=O)CCCCCCCCCCCCCCCCCCCCCCC	Protein SET (SET, Homo sapiens, UniProt Q01105, K222D)	lipid binding, GFP pull-down LC-MS/MS	A549 overexpressing GFP-tagged protein	unit not given	reference: vector-transfected cells	bound endogenous lipid	0.3
C[C@H]1CCN(c2nccc(-c3cnn4ncccc34)n2)C1	Tyrosine-protein kinase ABL1 (ABL1, Homo sapiens, UniProt P00519, T315I)			1 µM	reference: control	remaining binding	98%
CN1C(=O)/C(=C2\Nc3ccccc3\C2=N/O)c2ccc(Br)cc21	Aryl hydrocarbon receptor	reporter gene, agonist, luciferase reporter	ZF-4	0.16 µM	reference: vehicle control	fold change	12
O=C(Nc1cccc2c(=O)cc(-c3nnn[nH]3)oc12)c1ccc(OCCCCc2ccccc2)cc1	LRRC8A/LRRC8C (Homo sapiens, UniProt Q8IWT6+Q8TDW0, E6A)	whole-cell patch clamp	HCT116 LRRC8-/- transfected	at -100 mV		Hill coefficient	1.33
O=C(COP(=O)(O)O)[C@@H](O)[C@H](O)[C@H](O)COP(=O)(O)O	Ribose-phosphate pyrophosphokinase 1 (PRPS1, Homo sapiens, UniProt P60891)	thermal proteome profiling	HepG2 cell lysate	concentration not given, 57 over 37 °C	reference: compound over control	thermal stability ratio	2.78 and 1.65 and 2.95
Nc1ncnc2c1ncn2[C@@H]1O[C@H](COP(=O)(O)OP(=O)(O)O)[C@@H](O)[C@H]1O	GUK1	ITC		molar ratio 1.741		ΔH	-0.554 kcal/mol
Cc1cccc2c1ccc1cc(C(C)C)ccc12	Aryl hydrocarbon receptor	reporter gene, agonist, luciferase reporter	ZF-4	41.15 µM	reference: vehicle control	fold change	1.28
C#Cc1cccc(Oc2ccc(-c3nn([C@@H]4CCCN(C(=O)C=C)C4)c4ncnc(N)c34)cc2)c1	Prostaglandin E synthase 2 (Homo sapiens, UniProt Q9H7Z7)	ABPP-SILAC		1 µM, 1 h	reference: DMSO	SILAC ratio	1
CC/C=C\C[C@H](O)/C=C/C=C\C=C\C=C\[C@@H](O)[C@@H](O)C/C=C\CCC(=O)O	N-formyl peptide receptor 2 (FPR2, Homo sapiens, UniProt P25090)	calcium mobilisation	HEK293 expressing FPR2	concentration not given		intracellular calcium	no effect
Nc1ccc(C(=O)O)cc1	BEST1, with wild-type BEST1 (Homo sapiens, UniProt O76090, Q293K)	ion current, whole-cell patch clamp	HEK293 co-expressing mutant and wild-type	concentration not given, voltage -40 mV		current density	-6.08 pA/pF and -1.75 pA/pF and -4.78 pA/pF and -6.33 pA/pF and -4.93 pA/pF and -15.7 pA/pF

Excerpt of the above:
Structure (SMILES)	target	assay	system	conditions	how to read	quantity	value
Nc1ccc(C(=O)O)cc1	BEST1, with wild-type BEST1 (Homo sapiens, UniProt O76090, Q293K)	ion current, whole-cell patch clamp	HEK293 co-expressing mutant and wild-type	concentration not given, voltage -40 mV		current density	-6.08 pA/pF and -1.75 pA/pF and -4.78 pA/pF and -6.33 pA/pF and -4.93 pA/pF and -15.7 pA/pF
C#Cc1cccc(Oc2ccc(-c3nn([C@@H]4CCCN(C(=O)C=C)C4)c4ncnc(N)c34)cc2)c1	Prostaglandin E synthase 2 (Homo sapiens, UniProt Q9H7Z7)	ABPP-SILAC		1 µM, 1 h	reference: DMSO	SILAC ratio	1
